Results gathered from unrelated publications.
Every numbered part comes from another study and shows a few of its results, in no order.

Study 1
Target: Phosphate system positive regulatory protein PHO4, full length, GST-tagged (PHO4, Saccharomyces cerevisiae, UniProt P07270, residues 1-312)
Technique: competition protein-binding microarray
Form: double-stranded DNA, one strand shown
Matrix: in vitro
Tested at: 2 µM
Setting: whole 60-bp probe, lowest competitor level
Added: Cbf1 competitor, 0.05 µM
Reading: higher = stronger binding
Constant ends, left off below: … GTCTTGATTCGCTTGACGCTGCTG
Construct (chain): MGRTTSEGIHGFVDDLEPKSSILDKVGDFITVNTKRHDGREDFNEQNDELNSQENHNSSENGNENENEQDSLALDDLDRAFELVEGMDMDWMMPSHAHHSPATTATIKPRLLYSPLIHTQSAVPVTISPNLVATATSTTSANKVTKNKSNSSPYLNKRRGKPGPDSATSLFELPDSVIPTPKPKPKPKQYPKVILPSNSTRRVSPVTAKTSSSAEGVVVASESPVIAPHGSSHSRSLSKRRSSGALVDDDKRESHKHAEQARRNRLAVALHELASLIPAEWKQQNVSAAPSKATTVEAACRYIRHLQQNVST
Sequence	fluorescence intensity
AAAGCGGTAATTTGATCTGTGGGTGCAGATATCTAT	3550 a.u.
AAATTACTAAGTTGGATAGTGGGTGACGCCGTATGA	3900 a.u.
CTGTATACCTAATGAATCGTGGGTATTGTCTTCGTC	7160 a.u.
CACTGGCTGCTCCATCACGGGTCTCGAGGCGGAGAC	5920 a.u.
CATACCCAACCTTGAGCCGTGGGTGAAGATATTTGT	5260 a.u.
CAGCGCTAAGGACATGCCGTGATGGCATCAACCGGC	4620 a.u.
CGGAATTCCTGAACCGCCGTGACTCGGAGAATAAAT	3910 a.u.
CATGCCATAAGCCATCACCTGGCCAGTTGGCGTATG	3990 a.u.
CTTCTGTAAATTTGGCCGGTGGGTGGACGCGCCCCG	4240 a.u.
CGGGGTTAAGTTTTTCACGTGTAGTGCTTGCAGCAG	9940 a.u.
TTCACTTGTTTGAAAAACGTGTCGGAGGGATGTTCT	11600 a.u.
TAACGGCTATCCCATCACGTTCTCACCGAGGAGACC	11700 a.u.
CGTCCTAGTGATTTTCACGTGGCTTCCATGAGGAAG	14400 a.u.
AAAGCGGTAATTTGGCACGTGGGTGCAGATATCTAT	21700 a.u.
CGTCCTAGTGATTGTCACACCACTTCCATGAGGAAG	5440 a.u.
AAAGCGGTAATTTGATCCGTGGGTGCAGATATCTAT	5140 a.u.
CGTCCTAGTGATTGTCACGATACTTCCATGAGGAAG	6390 a.u.
AAGTGGTTACAAATTCACGTGCTGTGATTGGAAACT	13600 a.u.
GATGTAGATTACACTCTCATGACAATAAGCCACCCG	3600 a.u.

Study 2
Target: Fragile X messenger ribonucleoprotein 1, C-terminal low-complexity region (Fmr1, Mus musculus, UniProt P35922)
Technique: RNA Bind-n-Seq
Form: RNA
Matrix: in vitro
Tested at: 200 nM
Setting: whole 134-nt RNA, ends assumed
Added: 150 mM LiCl
Baseline: input library
Reading: higher = stronger binding
All molecules: 7-deaza-guanosine replaces G
Constant ends, left off below: GGGAGUUCUACAGUCCGACGAUC … UGGAAUUCUCGGGUGUCAAGG
Sequence	log2 enrichment
ACCAUGCAGGUGGGCAUCUUUGGGAAGUGGGGCAAGGGGGGGAUAGGGAGGGGGGUAACAAAAUGGGAACAGGUGGUCCCAGGUCGUUUC	1.49
AAGUCCUGUGCUACACAUCGUAUGUACCGAAUCGGGGUUUUGGGUUUUGGUUUUGGGAAAGUAUUAUGUUACGCCGUUCGGAUCUGCACU	-2.03
CACAGACAACACGCACCCACACAGACACAGAAAGAAGGGGUUGGGAUGGGGACAGGGUGCACAGCAGGGCGGGGUAGGACCCCAGCCCCU	0.454
CCUCAAGUCCUGUGCUACACAUCGUAUGUACCGAAUCGGAGGUUUGGUUUGGAAAGUAUUAUGUUACGCCGUUCGGAUCUGCACUUCCAG	-1.23
AGUCCUGUGCUACACAUCGUAUGUACCGAAUCGGAAAAAGGAAAAAGGGGAAAAAGGAAAGUAUUAUGUUACGCCGUUCGGAUCUGCACU	-1.37
CCUGUGCUACACAUCGUAUGUACCGAAUCGGGGCCCCCCGGGGCCCCCCGGGGCCCCCCGGAAAGUAUUAUGUUACGCCGUUCGGAUCUG	-2.63
CAAGUCCUGUGCUACACAUCGUAUGUACCGAAUCGGGCCCGGGGCCCGGGCCCGGAAAGUAUUAUGUUACGCCGUUCGGAUCUGCACUUC	-1.8
CACACACAACACGCACCCACACAGACACAGAGGGAAGGGGUUGGGAUGGGGACAGGGUGCACAGCAGGGCGGGGUAGGACCCCAGCCCCU	0.292

Study 3
Target: Histone acetyltransferase KAT6A, both winged helices, GST fusion (KAT6A, Homo sapiens, UniProt Q92794, residues 1-181)
Technique: protein binding microarray
Form: double-stranded DNA, one strand shown
Matrix: in vitro
Tested at: not given
Setting: 8-mer, flanks averaged, mean of 2 arrays, mostly near background
Baseline: not given
Reading: higher = stronger binding
Target sequence (chain): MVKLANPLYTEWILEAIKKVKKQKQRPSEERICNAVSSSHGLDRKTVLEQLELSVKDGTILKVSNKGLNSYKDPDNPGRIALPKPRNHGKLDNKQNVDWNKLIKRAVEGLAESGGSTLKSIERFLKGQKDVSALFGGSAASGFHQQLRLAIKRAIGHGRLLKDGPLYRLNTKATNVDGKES
Sequence	E-score
AAACCCAA	-0.244
AAGCGGGG	0.111
CGTGTATA	0.125
GCTATCTA	-0.00734
GGCTCTCA	0.0261
AGCCATTA	-0.0941
AAGGAACG	0.159
GTTCAAAC	0.125
ACCCGCCG	0.311
TAGCAACA	0.00752
AAGGGTTA	-0.054
AGATTAAA	-0.00282
ATCAAATC	-0.107
CGACGCGC	0.341
ATCGGCCG	0.27
AAGAAGGA	-0.114
AAGGGCTA	-0.106
ACGAGTAT	-0.0659
AAACACAC	0.114

Study 4
Target: Sal-like protein 4, full length isoform B (SALL4, Homo sapiens, UniProt Q9UJQ4-2, residues 1-616)
Technique: universal PBM
Form: double-stranded DNA, one strand shown
Matrix: in vitro
Tested at: not given
Setting: 8-mer, flanks averaged, mean of replicates
Reading: higher = stronger binding
Residues (chain): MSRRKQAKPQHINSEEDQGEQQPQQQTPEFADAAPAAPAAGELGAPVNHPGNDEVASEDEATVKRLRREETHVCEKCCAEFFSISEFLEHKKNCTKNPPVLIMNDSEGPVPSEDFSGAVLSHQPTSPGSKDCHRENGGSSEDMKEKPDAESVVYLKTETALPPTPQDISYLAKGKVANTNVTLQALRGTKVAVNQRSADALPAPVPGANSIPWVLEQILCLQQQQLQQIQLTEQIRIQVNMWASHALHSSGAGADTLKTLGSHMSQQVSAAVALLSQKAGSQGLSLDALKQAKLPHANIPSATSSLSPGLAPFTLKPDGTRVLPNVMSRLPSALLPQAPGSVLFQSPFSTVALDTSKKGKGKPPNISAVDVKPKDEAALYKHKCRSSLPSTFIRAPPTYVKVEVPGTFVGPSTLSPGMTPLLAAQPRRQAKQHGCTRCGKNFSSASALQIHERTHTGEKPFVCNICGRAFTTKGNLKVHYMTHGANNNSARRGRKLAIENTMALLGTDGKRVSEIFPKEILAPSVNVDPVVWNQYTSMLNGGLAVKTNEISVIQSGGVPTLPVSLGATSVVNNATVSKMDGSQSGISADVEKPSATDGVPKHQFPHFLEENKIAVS
Sequence	E-score
CCTTACGA	-0.0531
AAATCACA	0.0648
CGCAGAAG	-0.174
GTTGGTAA	0.118
AGCGCTTA	-0.172
CGACCTAC	-0.296
TCGTTCCA	0.128
ATATTAGC	0.311
AAGTGAAA	0.141
CCATGTGA	-0.101
ATTCAATA	0.387
GGTCACGA	-0.166
CCGGAGTC	-0.3
CGTGAGTC	-0.212
AGGAGGAG	-0.168
GACTGCCC	-0.258
GACGGCAC	-0.281
AGGTGCGC	-0.169
AGTTATTC	0.198
CTCGTGGC	-0.246
AACCCGCT	-0.222
AAGACTAG	0.0248
ACTAGGAG	-0.162
ACACGTTA	0.177
AACCTATC	0.0354
